Results from different studies.
Each numbered part is a random draw from the data of one study; scales do not carry over between parts.

Sample 1
Target: Ras GTPase-activating protein-binding protein 1, C-terminal RGG region (G3BP1, Homo sapiens, UniProt Q13283)
UniProt Q13283, sequence (whole entry, looked up): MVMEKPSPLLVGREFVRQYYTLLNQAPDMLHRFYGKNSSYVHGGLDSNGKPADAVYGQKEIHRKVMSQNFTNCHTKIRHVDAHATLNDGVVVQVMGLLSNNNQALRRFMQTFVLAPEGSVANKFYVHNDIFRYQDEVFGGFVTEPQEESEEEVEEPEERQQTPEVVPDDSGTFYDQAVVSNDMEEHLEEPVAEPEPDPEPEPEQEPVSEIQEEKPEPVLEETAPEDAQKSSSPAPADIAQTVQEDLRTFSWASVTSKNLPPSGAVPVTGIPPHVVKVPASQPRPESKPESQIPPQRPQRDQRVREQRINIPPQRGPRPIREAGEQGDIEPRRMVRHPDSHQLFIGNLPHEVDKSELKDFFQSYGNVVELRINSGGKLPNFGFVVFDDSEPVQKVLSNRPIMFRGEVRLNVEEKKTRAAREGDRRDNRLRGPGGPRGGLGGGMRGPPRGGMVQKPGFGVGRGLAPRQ
Method: RNA Bind-n-Seq
Form: RNA
Sample: in vitro
Tested at: 1 µM
Notes: whole 134-nt RNA, ends assumed
Together with: 150 mM KCl
Baseline: input library
Reading: higher = stronger binding
Strand | log2 enrichment
GGGAGUUCUACAGUCCGACGAUCCUGUGCUACACAUCGUAUGUACCGAAUCGGUUUUUUUGGGGUUUUUUUGGUUUUUUUGGGGAAAGUAUUAUGUUACGCCGUUCGGAUCUGUGGAAUUCUCGGGUGUCAAGG | -1.5
GGGAGUUCUACAGUCCGACGAUCCAAGUCCUGUGCUACACAUCGUAUGUACCGAAUCGGAAAAAGGAAAGGUUUUUGGAAAGUAUUAUGUUACGCCGUUCGGAUCUGCACUUCUGGAAUUCUCGGGUGUCAAGG | -2.05
GGGAGUUCUACAGUCCGACGAUCAGUCCUGUGCUACACAUCGUAUGUACCGAAUCGGGAAAAAAAGGGUGGGUUUUUGGGAAAGUAUUAUGUUACGCCGUUCGGAUCUGCACUUGGAAUUCUCGGGUGUCAAGG | 0.751

Sample 2
Target: Histone acetyltransferase KAT6A, both winged helices, GST fusion (KAT6A, Homo sapiens, UniProt Q92794, residues 1-181)
Method: protein binding microarray
Form: double-stranded DNA, one strand shown
Sample: in vitro
Tested at: not given
Notes: 8-mer, flanks averaged, mean of 2 arrays, mostly near background
Baseline: not given
Reading: higher = stronger binding
Target sequence (chain): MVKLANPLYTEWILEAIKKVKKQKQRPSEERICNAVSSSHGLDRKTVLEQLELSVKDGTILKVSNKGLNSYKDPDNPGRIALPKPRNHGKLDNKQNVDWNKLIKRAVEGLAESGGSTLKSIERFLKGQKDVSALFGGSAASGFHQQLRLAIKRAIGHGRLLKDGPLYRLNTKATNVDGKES
Strand | E-score
CAAGATCC | 0.0218
CAAGCGGC | 0.339
CATAGCGG | 0.269

Sample 3
Target: Phosphate system positive regulatory protein PHO4, full length, GST-tagged (PHO4, Saccharomyces cerevisiae, UniProt P07270, residues 1-312)
Method: competition protein-binding microarray
Form: double-stranded DNA, one strand shown
Sample: in vitro
Tested at: 2 µM
Notes: whole 60-bp probe, lowest competitor level
Together with: Cbf1 competitor, 0.05 µM
Reading: higher = stronger binding
Residues (chain): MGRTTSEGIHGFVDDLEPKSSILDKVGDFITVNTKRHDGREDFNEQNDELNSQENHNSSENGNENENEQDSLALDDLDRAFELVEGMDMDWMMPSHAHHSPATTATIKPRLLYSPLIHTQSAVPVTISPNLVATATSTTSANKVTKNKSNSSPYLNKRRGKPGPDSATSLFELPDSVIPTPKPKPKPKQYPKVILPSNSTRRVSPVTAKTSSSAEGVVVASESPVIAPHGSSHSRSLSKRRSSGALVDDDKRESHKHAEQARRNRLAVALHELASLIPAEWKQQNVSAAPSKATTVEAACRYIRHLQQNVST
Strand | fluorescence intensity [a.u.]
AAAAAAAAAACGAGTCACGTGCAAACAGTACCCCTTGTCTTGATTCGCTTGACGCTGCTG | 16200
CTATGAAGACAACATCACCTGGAATGACATCTGGGGGTCTTGATTCGCTTGACGCTGCTG | 3860
AAATTACTAAGTTGTCACCTAACTTACCCCGTATGAGTCTTGATTCGCTTGACGCTGCTG | 3110

Mixed results
Substance | target | assay | system | setting | how to read | endpoint | value
PhoQ, residues 284 288 289 292 302 303 TTCLQL | PhoP, residues 12 14 15 18 19 SPWRL (Escherichia coli, UniProt P23836) | Sort-seq, item: YFP reporter | E. coli | PhoQ-PhoP variant library, together with: 10 µM Mg2+ | baseline: high Mg2+ state, higher = stronger signaling | fold induction | 2.03

Excerpt of the above (sample 1):
Strand | log2 enrichment
GGGAGUUCUACAGUCCGACGAUCCAAGUCCUGUGCUACACAUCGUAUGUACCGAAUCGGAAAAAGGAAAGGUUUUUGGAAAGUAUUAUGUUACGCCGUUCGGAUCUGCACUUCUGGAAUUCUCGGGUGUCAAGG | -2.05
